Published values gathered from unrelated publications.
A part holds a random share of what one study measured. Positions count from the first letter of the parent shown.

Set 1 — method: RNA Bind-n-Seq; form: RNA; matrix: in vitro; concentration: 365 nM; baseline: no-protein control; reading: higher = stronger binding
Target: RNA binding protein fox-1 homolog 2, RRM domain, GST-SBP tag (RBFOX2, Homo sapiens, UniProt O43251-10, residues 100-194)
Notes: natural RNA segment, single round, ends assumed
All sequences stand within: GGGAGUUCUACAGUCCGACGAUC … UGGAAUUCUCGGGUGCCAA
Residues (chain): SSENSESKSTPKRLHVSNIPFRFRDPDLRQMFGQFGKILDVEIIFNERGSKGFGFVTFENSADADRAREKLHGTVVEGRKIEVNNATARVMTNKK
| Sequence | RBNS enrichment (R) |
| --- | --- |
| CGUAUGUAAGUAAUCUGGGGAAGAAGCAAAGAUCUGUUUCAUUCUUAGCCUCAGGCCUCAUGAGGGUCUCCACAGGGCCGGAGCUCAGGUUACACCACUCCUUCGUCCUU | 0.243 |
| CCUAAGCAAAGAAAAUACGGCUUCUCUUGCAUUAUUUUCCCUUUUGGUUGGUUUGUUUUCUAGAAGUACGUUCAGAUGCUUUGGGGAAUGCAAUGUAUGAUUUGCUAGCU | 0.322 |
| CAUUUUCAUGGAAUUAAUUUACACGUAAUGAGGGAAGUCCUAGGAUGGAUAGAAAAAAAGCACUUACAUUGGGGCACACAGGAAAUCCCAGUGUCUAGCAAUGGUUUGGU | 0.83 |
| AGUGCUAUCUCCAUCUACUGACUUGUGGUGUACACGUGCAUGUCUGGGUCUGUGGGUUUCUGUUGGGUGCUGAGUUGGGUGAUUUCAUUUUAGUGAAAUAUUUGUGGGCC | 1.27 |
| CUAGGACCAGCUCCCACGUGCCAUUUACUGCUUUCUUCACCCUCCUCAUCUGGAGUUUGAUGGUUUACAGAUGUCUGACAGUUCCUCAGCUCUUGUGCCAAGGAGGAGUG | 0.481 |
| CUUGAAAACGUUAUUUAUAAUGAAAUCAACUAAAACUAUUUUUGCUAUAAGUUCUAUAAGGUGCAUAAAACCCUUAAAUUCAUCUAGUAGCUGUUCCCCUGAACAGGUUU | 1.14 |
| AAACCCUGAUAUUUUUACUGUGAAGGUGUUUUCAGUUGUUCUUAGGAAGAACAGCUGAUAGAAAUUCAAGAUUACUAUAAUGGCUGUUAUUAUACACAGCUCUGUAAACU | 0.671 |
| UGUACAUCAGACAGAAGGGUAAUGCGUGCAGUUCCUGCUGCCUGCAGGCAGACGAGGCCUUUGCUUUACAGCACUGUAUGUGUUGCACGAUGGAUCCGUGACAGCACUUU | 1.98 |

Set 2 — method: protein binding microarray; form: double-stranded DNA, one strand shown; matrix: in vitro; concentration: not given; baseline: not given; reading: higher = stronger binding
Target: Histone acetyltransferase KAT6A, winged helix 1, GST fusion (KAT6A, Homo sapiens, UniProt Q92794, residues 1-85)
Notes: 8-mer, flanks averaged, mean of 2 arrays, mostly near background
Construct (chain): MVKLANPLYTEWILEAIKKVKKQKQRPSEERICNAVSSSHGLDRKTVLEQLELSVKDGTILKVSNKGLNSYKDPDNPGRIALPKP
| Sequence | E-score |
| --- | --- |
| GTCTTTAA | -0.1 |
| CGCAAACC | 0.233 |
| ACAAGGCC | 0.0154 |
| CAAAACCC | -0.0974 |
| AAGTGTGA | -0.22 |
| GCGGTAGA | 0.129 |
| TCATGGCA | -0.0621 |
| GGCCCTCA | 0.0166 |
| AACGTGGA | -0.123 |
| AACTCGGA | -0.0317 |
| GCGCCAAC | 0.217 |
| GTGAGTGA | -0.0963 |
| AGAGGCAT | -0.109 |
| ACAGGATC | -0.256 |
| CAGCGTCG | 0.272 |
| ATCCCCTC | -0.133 |
| ATTGGTAG | -0.146 |
| ACCGCCAC | 0.2 |
| AGACTGCC | 0.0456 |
| CGAAGATC | -0.0982 |
| ACCGACCA | -0.216 |

Set 3 — target: CCND1, cyclin fold, Cln2 fusion (human); method: yeast growth competition, sequencing; matrix: yeast; notes: strong parent motif; baseline: not given; reading: higher = stronger binding
Starting sequence: E2F1 docking peptide (human); PPVKRRLDFETDH
| Change | normalised enrichment score |
| --- | --- |
| PPVKYRLDFETDH [R5Y] | 0.524 |
| PPVKRRQDFETDH [L7Q] | 0.0661 |
| PEVKRRLDFETDH [P2E] | 1.32 |
| PPVKRRFDFETDH [L7F] | 0.0546 |
| PPVKRRLDFEKDH [T11K] | 2.15 |
| PPVKRRLDFETWH [D12W] | 2.63 |
| PPVKRRLDFETKH [D12K] | 2.35 |
| PPPKRRLDFETDH [V3P] | 1.2 |
| PPVKRRLRFETDH [D8R] | 0.735 |
| PDVKRRLDFETDH [P2D] | 2.02 |
| PPVKRREDFETDH [L7E] | 0.188 |
| PPVARRLDFETDH [K4A] | 4.36 |
| PPWKRRLDFETDH [V3W] | 0.337 |
| PQVKRRLDFETDH [P2Q] | 2.03 |
| PPVKRRLDFSTDH [E10S] | 2.8 |
| PPVFRRLDFETDH [K4F] | 1.28 |
| PPVKRRLDFATDH [E10A] | 2.44 |
| PPVNRRLDFETDH [K4N] | 2.42 |

Set 4 — method: RNA Bind-n-Seq; form: RNA; matrix: in vitro; concentration: 200 nM; notes: whole 134-nt RNA, ends assumed; added: 150 mM LiCl; baseline: input library; reading: higher = stronger binding; all molecules: 7-deaza-guanosine replaces G
Target: Ras GTPase-activating protein-binding protein 1, full length (G3BP1, Homo sapiens, UniProt Q13283)
Sequence of UniProt Q13283 (whole entry, looked up): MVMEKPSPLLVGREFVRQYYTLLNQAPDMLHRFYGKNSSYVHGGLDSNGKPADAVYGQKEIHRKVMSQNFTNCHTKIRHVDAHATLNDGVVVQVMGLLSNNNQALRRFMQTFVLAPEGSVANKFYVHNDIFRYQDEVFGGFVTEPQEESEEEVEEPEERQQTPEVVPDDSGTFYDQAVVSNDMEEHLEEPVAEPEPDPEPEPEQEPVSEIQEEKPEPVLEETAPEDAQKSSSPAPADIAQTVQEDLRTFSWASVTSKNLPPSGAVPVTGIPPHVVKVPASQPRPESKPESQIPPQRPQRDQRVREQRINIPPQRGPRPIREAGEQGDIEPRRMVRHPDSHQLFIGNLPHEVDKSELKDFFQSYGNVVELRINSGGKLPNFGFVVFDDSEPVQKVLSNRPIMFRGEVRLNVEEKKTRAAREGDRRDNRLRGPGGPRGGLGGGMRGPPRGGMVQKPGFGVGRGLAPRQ
All sequences stand within: GGGAGUUCUACAGUCCGACGAUC … UGGAAUUCUCGGGUGUCAAGG
| Sequence | log2 enrichment |
| --- | --- |
| CCUCAAGUCCUGUGCUACACAUCGUAUGUACCGAAUCGGGGCGGGGCGGGCGGAAAGUAUUAUGUUACGCCGUUCGGAUCUGCACUUCCA | 0.18 |
| CCUGUGCUACACAUCGUAUGUACCGAAUCGGGUUUUUUUGGUUUUUUUGGGUUUUUUUGGAAAGUAUUAUGUUACGCCGUUCGGAUCUGC | 0.772 |
| UAACUUUAGAGGAGGAUCUGAUGGAGAUGGCAGUGGACGUGGAUUUGGGGAUGGCUAUAAUGGGUAUGGAGGAGGACCUGGAGGUGGCAA | -0.15 |
| CUCAAGUCCUGUGCUACACAUCGUAUGUACCGAAUCGGGUUGGUUGGUUGGGGAAAGUAUUAUGUUACGCCGUUCGGAUCUGCACUUCCA | 0.292 |
| UGGCCCUGGUGGCAUGCGGGGAGGAAGAGGUGGCCUCAAGGAUCGUGGUGGUCCCGGUGGAAUGUUCAGAGGUGGCCGUGGUGGAGACAG | 0.262 |
| ACCAUGCAGGUGGGCAUCUUUGGGAAGUGGGGCAAGGGGGGGAUAGGGAGGGGGGUAACACGUUGGGAACAGGUGGUCCCAGGUCGUUUC | 0.245 |
| UCCUCAAGUCCUGUGCUACACAUCGUAUGUACCGAAUCGGCGGGCGGGCGGGAAAGUAUUAUGUUACGCCGUUCGGAUCUGCACUUCCAG | 1.32 |
| AAGUCCUGUGCUACACAUCGUAUGUACCGAAUCAAAUUUAAACCCCCAAAUUUAAAAAAGUAUUAUGUUACGCCGUUCGGAUCUGCACUU | 0.143 |

Mixed results
| Molecule | target | test | test system | setting | how to read | endpoint | result |
| --- | --- | --- | --- | --- | --- | --- | --- |
| PhoQ, residues 284 288 289 292 302 303 SMMNNA | PhoP, residues 12 14 15 18 19 SGWQI (Escherichia coli, UniProt P23836) | Sort-seq, measured: YFP reporter | E. coli | PhoQ-PhoP variant library, added: 10 µM Mg2+ | baseline: high Mg2+ state, higher = stronger signaling | fold induction | 2.49 |

Repeated from above (set 3):
| Change | normalised enrichment score |
| --- | --- |
| PPPKRRLDFETDH [V3P] | 1.2 |
| PPVKRRLRFETDH [D8R] | 0.735 |
| PDVKRRLDFETDH [P2D] | 2.02 |
| PPVKRREDFETDH [L7E] | 0.188 |
| PPVARRLDFETDH [K4A] | 4.36 |
| PPWKRRLDFETDH [V3W] | 0.337 |
| PQVKRRLDFETDH [P2Q] | 2.03 |
| PPVKRRLDFSTDH [E10S] | 2.8 |
| PPVFRRLDFETDH [K4F] | 1.28 |
